Results from different studies.
Protocols differ between the studies behind these lines.

`CCCCCCCCCC(=O)N[C@@H](Cc1c[nH]c2ccccc12)C(=O)N[C@H](CC(N)=O)C(=O)N[C@@H](CC(=O)O)C(=O)N[C@@H]1C(=O)NCC(=O)N[C@@H](CCCN)C(=O)N[C@@H](CC(=O)O)C(=O)N[C@H](C)C(=O)N[C@@H](CC(=O)O)C(=O)NCC(=O)N[C@H](CO)C(=O)N[C@@H]([C@H](C)CC(=O)O)C(=O)N[C@@H](CC(=O)c2ccccc2N)C(=O)O[C@@H]1C` gave an EC50 of > 64 µM (A549; cytotoxicity, WST-1; human cells; 5 days, 5% FBS DMEM).
For `Clc1ccc(COc2ccc(CNCc3ccccc3)cc2)cc1`, the cytotoxic concentration was > 50 µM (A549).
`C/C(=N\Nc1ccc(F)cc1)c1ccc(-c2ccc(/C(C)=N/Nc3ccc(F)cc3)cc2)cc1`: cytotoxicity “not toxic” (A549; 15.5 µg/mL).
Under “hypoxic cytotoxicity ratio”, `COc1cc(C2=CCCc3c2ccc(OC)c3OCc2cnc([N+](=O)[O-])n2C)cc(OC)c1OC` is recorded as 1.3 (A549; 4 h anoxic; reference: oxic IC50 over anoxic IC50).
`CNC(=O)c1cc(Oc2ccc(NC(=O)Nc3ccc(Cl)c(C(F)(F)F)c3)cc2)ccn1` gave a CC50 of 19.9 µM (A549; MTT; 24 h).
For `COc1cc(C2=CCCc3c2ccc(OC)c3OC(C)c2ccc([N+](=O)[O-])s2)cc(OC)c1OC` (stereo not shown), “hypoxic cytotoxicity ratio” read 3.5 (A549; 4 h anoxic; reference: oxic IC50 over anoxic IC50).
Under “z-scored log2 fold change”, `NC(=O)NCCC(=O)O` is recorded as -1.47 (binding, equilibrium dialysis LC-MS; 5 µM, thermostabilized A2AR-BRIL construct; reference: no-protein control, direction not given).
For `CC(=O)OC[C@H]1O[C@@H]([S-])[C@H](OC(C)=O)[C@@H](OC(C)=O)[C@@H]1OC(C)=O.CCP(CC)CC.[Au+]`, the EC50 was 0.1 µM (A549; cytotoxicity; 5 days).
For `Fc1ccc(COc2ccccc2CNCc2ccccc2)cc1`, the cytotoxic concentration was > 12.5 µM (A549).
Under “hypoxic cytotoxicity ratio”, `COc1cc(C2=CCCc3c2ccc(OC)c3OC(C)(C)c2ccc([N+](=O)[O-])s2)cc(OC)c1OC` is recorded as 1.7 (A549; 4 h anoxic; reference: oxic IC50 over anoxic IC50).
For `OC[C@H]1O[C@@](CO)(O[C@H]2O[C@H](CO)[C@@H](O)[C@H](O)[C@H]2O)[C@@H](O)[C@@H]1O`, “z-scored log2 fold change” read 0.192 (binding, equilibrium dialysis LC-MS; 5 µM, thermostabilized A2AR-BRIL construct; reference: no-protein control, direction not given).
The cytotoxic concentration of `Brc1ccc(COc2ccccc2CNCc2cccnc2)cc1` is reported as > 12.5 µM (A549).
`Fc1ccc(N/N=C/c2ccc(-c3cccc(/C=N/Nc4ccc(F)cc4F)c3)cc2)c(F)c1` — result for cytotoxicity: “not toxic” (A549; 15.5 µg/mL).

A few entries again:
`CCCCCCCCCC(=O)N[C@@H](Cc1c[nH]c2ccccc12)C(=O)N[C@H](CC(N)=O)C(=O)N[C@@H](CC(=O)O)C(=O)N[C@@H]1C(=O)NCC(=O)N[C@@H](CCCN)C(=O)N[C@@H](CC(=O)O)C(=O)N[C@H](C)C(=O)N[C@@H](CC(=O)O)C(=O)NCC(=O)N[C@H](CO)C(=O)N[C@@H]([C@H](C)CC(=O)O)C(=O)N[C@@H](CC(=O)c2ccccc2N)C(=O)O[C@@H]1C` gave an EC50 of > 64 µM (A549; cytotoxicity, WST-1; human cells; 5 days, 5% FBS DMEM).
